Assay results from different studies.
Lines come from different studies, so protocols differ. ± gives the spread as reported.

| SMILES | test | test system | conditions | AUC(0-t) |
| --- | --- | --- | --- | --- |
| CC(=O)c1c(C)c2cnc(Nc3ccc(N4CCNCC4)cn3)nc2n(C2CCCC2)c1=O | – | human | oral, 75 mg/m^2 single dose, day 1 | 1.87 µg·h/mL |
| CCCOc1ccc(S(=O)(=O)NCCC2CCCN2C)cc1-c1nc2c(CCC)nn(C)c2c(=O)[nH]1 (stereo not shown) | – | healthy male humans, plasma | oral, 200 mg, with: dapoxetine 60 mg | 4.38 ± 1.18 µg·h/mL |
| COc1cc2ncnc(Nc3ccc(F)c(Cl)c3)c2cc1OCCCN1CCOCC1 | – | human, plasma | oral, 250 mg, with: vorinostat 300 mg | 0.0034 ± 0.00105 µg·h/mL |
| CN(Cc1cnc2nc(N)nc(N)c2n1)c1ccc(C(=O)N[C@@H](CCC(=O)O)C(=O)O)cc1 | – | human, plasma | oral, 10 mg, with: apremilast 30 mg twice daily | 1.3 µg·h/mL |
| Cc1cc(-c2nnc(N)nc2-c2ccc(F)cc2)cc(Cl)n1 | – | human patients, plasma | oral, 75 mg nanosuspension, single dose, arithmetic mean | 4.06 µg·h/mL |
| N[C@@H](Cc1ccc(O)c(O)c1)C(=O)O | – | human, plasma | oral, 150 mg single, geometric LS mean, with: 37.5 mg carbidopa | 3.86 µg·h/mL |
| CC(C)C[C@H](NC(=O)[C@H](CCc1ccccc1)NC(=O)CN1CCOCC1)C(=O)N[C@@H](Cc1ccccc1)C(=O)N[C@@H](CC(C)C)C(=O)[C@@]1(C)CO1 | – | human patients, plasma | intravenous infusion 10 min, 27 mg/m^2, day 16 of cycle 1, KRd regimen | 0.444 ± 0.056 µg·h/mL |
| Cc1ccc(C(=O)NC2CC2)cc1-n1ncc(C(=O)c2cccc(C#N)c2)c1N | – | human, plasma | oral, 14 mg, geometric mean, with: azithromycin 500 mg daily for three days | 6.06 µg·h/mL |
| COc1cccc(-c2ccc(NC(=O)C3=C(C(=O)O)CCC3)c(F)c2)c1 | – | human, male, fasted, plasma | oral, 10 mg, single dose, geometric mean | 35.7 µg·h/mL |
| CCCS(=O)(=O)N[C@H]1C[C@@H](N(C)c2ncnc3[nH]ccc23)C1 | – | humans, mild hepatic impairment | oral, 200 mg single | 7.43 µg·h/mL |
| Cc1cc(C)c2c(c1)[C@@H](N(Cc1cc(C(F)(F)F)cc(C(F)(F)F)c1)c1nnn(C)n1)CCCN2C[C@H]1CC[C@H](C(=O)O)CC1 | – | human, plasma | oral, 100 mg once daily, steady state, geometric mean | 4.61 µg·h/mL |
| C=CC(=O)Nc1cc(Nc2ncc(C(=O)OC(C)C)c(-c3cn(C)c4ccccc34)n2)c(OC)cc1N(C)CCN(C)C | – | human, fasted | oral, 20 mg single dose, geometric mean | 0.059 µg·h/mL |
| CCS(=O)(=O)N1CC(CC#N)(n2cc(-c3ncnc4[nH]ccc34)cn2)C1 | – | healthy Chinese human subjects, plasma | oral, 10 mg, single dose, mean | 0.775 µg·h/mL |
| CCn1c(=O)c2c(nc(/C=C/c3ccc(OC)c(OC)c3)n2C)n(CC)c1=O | – | healthy human, plasma | oral, 40 mg single dose, geometric mean, with: rifampin 600 mg/day steady state | 1.97 µg·h/mL |
| CC(C)[C@@H](CS(=O)(=O)C(C)C)N1C(=O)[C@@](C)(CC(=O)O)C[C@H](c2cccc(Cl)c2)[C@H]1c1ccc(Cl)cc1 | – | human, plasma | oral, 60 mg, old tablet, fasted, arithmetic mean | 2.98 µg·h/mL |
| COC(=O)C(c1ccccc1Cl)N1CCC(S)C(=CC(=O)O)C1 (stereo not shown) | – | human patients, CYP3A4 wt/wt, plasma | oral, 75 mg clopidogrel daily, day 7, median | 0.00759 µg·h/mL |
| CN(Cc1nc2c(N)nc(N)nc2[nH]c1=O)c1ccc(C(=O)N[C@@H](CCC(=O)O)C(=O)O)cc1 | – | human, plasma | oral, 15 mg methotrexate, day 1, alone, arithmetic mean | 1.33 µg·h/mL |
| CNC(=O)c1c(C)oc2cc(Oc3ncnc4cc(OC)c(OC)cc34)ccc12 | – | human, plasma | oral, 5 mg, fed, high-fat meal | 5.23 µg·h/mL |
| CCCc1nn(C)c2c(=O)[nH]c(-c3cc(S(=O)(=O)N4CCN(C)CC4)ccc3OCC)nc12 | – | human, male, plasma | oral, dose not given, day 8, with: sacubitril/valsartan | 0.559 µg·h/mL |
| O=C(O)CNC(=O)c1c(O)c2ccccc2n(OCC2CC2)c1=O | LC-MS/MS | human, blood | oral, 100 mg multiple doses | 19.2 ± 8.82 µg·h/mL |
| C#C[C@]1(O)CC[C@H]2[C@@H]3CCc4cc(O)ccc4[C@H]3CC[C@@]21C | – | human female, plasma | oral, 35 µg, day 1, with: norethindrone 1 mg | 0.001 µg·h/mL |
| C=C(C)[C@@H]1CC[C@]2(NCCN3CCS(=O)(=O)CC3)CC[C@]3(C)[C@H](CC[C@@H]4[C@@]5(C)CC=C(C6=CC[C@@](CF)(C(=O)O)CC6)C(C)(C)[C@@H]5CC[C@]43C)[C@@H]12 | – | healthy human volunteers, plasma | oral, 200 mg, tablet, moderate-fat state, mean | 40.7 µg·h/mL |

| SMILES | test | test system | conditions | AUC(0-t) |
| --- | --- | --- | --- | --- |
| Cc1ccc(NC(=O)c2ccc(CN3CCN(C)CC3)cc2)cc1Nc1nccc(-c2cncc(-c3oncc3C)c2)n1 | – | older healthy human adults, plasma | oral, 250 mg single dose, fed, mean | 213 µg·h/mL |
| Cc1[nH]c(/C=C2\C(=O)Nc3ccccc32)c(C)c1CCC(=O)O | – | human patients | oral, 200 mg/m^2 three times daily, after meal, dose 82 | 15.2 ± 4.89 µg·h/mL |
| CNc1nc(Nc2ccc(-n3cnc(C)n3)c(OC)c2)nc2c1CC[C@H]2c1ccc(F)cc1 | – | human | oral, 50 mg once daily, day 14, multiple ascending dose | 4.22 µg·h/mL |
| C=CC(=O)N1C[C@H](Nc2ncnc3[nH]ccc23)CC[C@@H]1C | adjusted geometric mean | human, plasma | oral, 50 mg single dose, without rifampicin | 0.448 µg·h/mL |
| O=C(NCCN1CCCC1)c1cc(-c2ccc(CN3CCOCC3)cc2)nc2ccc(F)cc12 | LC-MS/MS | human, whole blood | oral, 100 mg, single dose, geometric mean | 1.25 µg·h/mL |
| CCc1cc(/C(C)=N/OCc2ccc(C3CCCCC3)c(C(F)(F)F)c2)ccc1CN1CC(C(=O)O)C1 | – | healthy human, CYP2C9*1/*1, plasma | oral, 4 mg single dose, geometric mean, with: fluconazole steady state | 2.16 µg·h/mL |
| CCCCC1(CCCC)CN(c2ccccc2)c2cc(SC)c(OCC(=O)N[C@@H](C(=O)NCC(=O)O)c3ccccc3)cc2S(=O)(=O)C1 | – | human, plasma | oral, 5 mg, before breakfast | 0.000633 µg·h/mL |
| C=CC(=O)N1CCC([C@@H]2CCNc3c(C(N)=O)c(-c4ccc(Oc5ccccc5)cc4)nn32)CC1 | – | human | oral, 480 mg single dose, mean | 2.57 µg·h/mL |
| CC(C)[C@@H](C)[C@@]1(C)CC[C@]2(C)[C@H]3CC[C@@H]4[C@@]5(COC[C@@]4(C)[C@@H](OC[C@](C)(N)C(C)(C)C)[C@H](n4ncnc4-c4ccncc4)C5)C3=CC[C@@]2(C)[C@@H]1C(=O)O | – | human, both sexes, plasma | oral, 1250 mg day 1, then 750 mg days 2 and 3, 24 h, day 3, geometric mean | 14.8 µg·h/mL |
| CNCc1ccc(-c2[nH]c3cc(F)cc4c3c2CCNC4=O)cc1 | – | human patients, plasma | oral, 80 mg once daily, day 15, 24 h, steady state, arithmetic mean | 1.74 µg·h/mL |
| CCOc1ccc(Cc2cc([C@@H]3S[C@H](CO)[C@@H](O)[C@H](O)[C@H]3O)c(OC)cc2C)cc1 | – | human | oral, 5 mg, 0 to 48 h, fasted | 1.86 ± 0.267 µg·h/mL |
| Cl.NCCc1c[nH]c(=S)n1[C@H]1COc2c(F)cc(F)cc2C1 | – | human male, fed high-fat meal, plasma | oral, 200 mg single dose, arithmetic mean | 1.74 µg·h/mL |
| CN[C@@H]1COc2c(S(=O)(=O)NC(=O)Nc3c4c(cc5c3CCC5)CCC4)cnn2C1 | – | human | oral, 600 mg, high-fat meal, geometric LS mean | 147 µg·h/mL |
| CCCC[C@H](NC(C)=O)C(=O)N[C@H]1CCC(=O)NC[C@@H](C(=O)N[C@@H](Cc2c[nH]c3ccccc23)C(N)=O)NC(=O)[C@H](CCCNC(=N)N)NC(=O)[C@@H](Cc2ccccc2)NC(=O)[C@H](Cc2c[nH]cn2)NC1=O | – | healthy human, both sexes, plasma | subcutaneous, 1.0 mg once daily, day 1, geometric mean | 0.0474 µg·h/mL |
| O=c1[nH]c(=O)c(Cc2cccc(C(F)(F)F)c2)c([C@H]2CC[C@H](c3ccccc3)CC2)[nH]1 | – | human, fasted, plasma | oral, 1500 mg single dose, geometric mean | 9.42 µg·h/mL |
| CC(C)[C@H](N)C(=O)NCCCS(=O)(=O)O | – | human, both sexes, plasma | oral, 100 mg capsule | 3.61 ± 0.684 µg·h/mL |
| CC(C)NC[C@@H](C(=O)N1CCN(c2ncnc3c2[C@H](C)C[C@H]3O)CC1)c1ccc(Cl)cc1 | – | human, Moderate hepatic function, plasma | oral, 100 mg single dose, NCI classification, geometric mean | 0.985 µg·h/mL |
| CN(C)Cc1c(C(=O)NCCOc2ccc(C(=O)NO)cc2)oc2ccccc12 | – | human, plasma | oral, 60 mg single dose | 0.225 ± 0.0472 µg·h/mL |
| O=C(O)CC[C@H]1CC[C@@](c2cc(F)ccc2F)(S(=O)(=O)c2ccc(Cl)cc2)CC1 | – | human patients, plasma | oral, 1000 mg/m2/week | 1400 to 2910 µg·h/mL |
| COc1cc2c(cc1OC)[C@H]1CC(=O)[C@H](CC(C)C)CN1CC2 (racemic) | – | human CYP2D6 extensive metabolizers, plasma | oral, 25 mg, fasted, geometric mean | 0.00015 µg·h/mL |
| CC[C@H](C)[C@H](NC(=O)[C@H](Cc1ccc(O)cc1)NC(=O)[C@@H](NC(=O)[C@@H](N)CCCNC(=N)N)C(C)C)C(=O)N[C@@H](Cc1c[nH]cn1)C(=O)N1CCC[C@H]1C(=O)N[C@@H](Cc1ccccc1)C(=O)N[C@@H](Cc1c[nH]cn1)C(=O)N[C@@H](CC(C)C)C(=O)O | – | healthy humans, plasma | oral, 0.08 mg/kg single dose, 0 to 12 h | 0.079 ± 0.0489 µg·h/mL |

A few entries again:
| SMILES | test | test system | conditions | AUC(0-t) |
| --- | --- | --- | --- | --- |
| CCc1cc(/C(C)=N/OCc2ccc(C3CCCCC3)c(C(F)(F)F)c2)ccc1CN1CC(C(=O)O)C1 | – | healthy human, CYP2C9*1/*1, plasma | oral, 4 mg single dose, geometric mean, with: fluconazole steady state | 2.16 µg·h/mL |
| Cc1cc(-c2nnc(N)nc2-c2ccc(F)cc2)cc(Cl)n1 | – | human patients, plasma | oral, 75 mg nanosuspension, single dose, arithmetic mean | 4.06 µg·h/mL |
| N[C@@H](Cc1ccc(O)c(O)c1)C(=O)O | – | human, plasma | oral, 150 mg single, geometric LS mean, with: 37.5 mg carbidopa | 3.86 µg·h/mL |
| CCCS(=O)(=O)N[C@H]1C[C@@H](N(C)c2ncnc3[nH]ccc23)C1 | – | humans, mild hepatic impairment | oral, 200 mg single | 7.43 µg·h/mL |
| CCn1c(=O)c2c(nc(/C=C/c3ccc(OC)c(OC)c3)n2C)n(CC)c1=O | – | healthy human, plasma | oral, 40 mg single dose, geometric mean, with: rifampin 600 mg/day steady state | 1.97 µg·h/mL |
| C=CC(=O)N1C[C@H](Nc2ncnc3[nH]ccc23)CC[C@@H]1C | adjusted geometric mean | human, plasma | oral, 50 mg single dose, without rifampicin | 0.448 µg·h/mL |
